Measurements from different studies.
A part holds a random share of what one study measured. Several values in a cell are separate wells, animals, samples, runs or records.
UniProt Q04912, sequence (whole entry, looked up): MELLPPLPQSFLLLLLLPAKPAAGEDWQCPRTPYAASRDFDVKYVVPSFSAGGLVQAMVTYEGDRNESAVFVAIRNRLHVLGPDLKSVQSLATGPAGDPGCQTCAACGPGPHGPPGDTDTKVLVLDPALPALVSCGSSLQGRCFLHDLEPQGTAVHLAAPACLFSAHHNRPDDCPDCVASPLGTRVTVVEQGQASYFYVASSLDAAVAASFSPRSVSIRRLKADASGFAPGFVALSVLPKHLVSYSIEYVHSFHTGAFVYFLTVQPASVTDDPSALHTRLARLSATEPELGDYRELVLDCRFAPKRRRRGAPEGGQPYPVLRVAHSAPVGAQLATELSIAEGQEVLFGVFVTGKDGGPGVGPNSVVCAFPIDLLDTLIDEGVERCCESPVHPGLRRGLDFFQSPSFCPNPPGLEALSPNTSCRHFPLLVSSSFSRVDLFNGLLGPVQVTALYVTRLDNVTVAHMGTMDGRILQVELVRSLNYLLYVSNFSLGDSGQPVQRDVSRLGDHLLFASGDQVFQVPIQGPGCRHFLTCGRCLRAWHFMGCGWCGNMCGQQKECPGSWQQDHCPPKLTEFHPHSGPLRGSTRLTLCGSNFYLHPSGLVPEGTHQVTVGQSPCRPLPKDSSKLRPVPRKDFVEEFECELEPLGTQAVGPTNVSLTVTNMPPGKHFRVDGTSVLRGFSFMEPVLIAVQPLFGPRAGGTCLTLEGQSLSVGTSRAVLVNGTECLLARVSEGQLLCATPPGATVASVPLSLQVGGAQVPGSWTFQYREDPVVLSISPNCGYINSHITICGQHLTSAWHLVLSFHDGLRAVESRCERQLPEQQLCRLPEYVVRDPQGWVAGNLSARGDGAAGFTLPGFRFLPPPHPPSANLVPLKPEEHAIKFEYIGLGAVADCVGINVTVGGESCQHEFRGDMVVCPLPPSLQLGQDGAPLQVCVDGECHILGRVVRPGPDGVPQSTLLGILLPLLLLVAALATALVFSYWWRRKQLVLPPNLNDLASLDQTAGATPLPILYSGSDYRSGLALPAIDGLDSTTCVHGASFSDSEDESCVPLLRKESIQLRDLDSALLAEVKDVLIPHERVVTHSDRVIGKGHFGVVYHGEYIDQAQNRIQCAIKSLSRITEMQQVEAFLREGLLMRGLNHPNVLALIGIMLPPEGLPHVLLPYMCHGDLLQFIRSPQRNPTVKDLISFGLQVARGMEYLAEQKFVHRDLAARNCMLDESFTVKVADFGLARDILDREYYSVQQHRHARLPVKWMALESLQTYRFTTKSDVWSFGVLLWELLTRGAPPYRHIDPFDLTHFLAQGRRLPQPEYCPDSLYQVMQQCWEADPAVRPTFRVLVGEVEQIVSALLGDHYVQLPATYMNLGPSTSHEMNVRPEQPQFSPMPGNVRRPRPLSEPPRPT
UniProt Q15349, sequence (whole entry, looked up): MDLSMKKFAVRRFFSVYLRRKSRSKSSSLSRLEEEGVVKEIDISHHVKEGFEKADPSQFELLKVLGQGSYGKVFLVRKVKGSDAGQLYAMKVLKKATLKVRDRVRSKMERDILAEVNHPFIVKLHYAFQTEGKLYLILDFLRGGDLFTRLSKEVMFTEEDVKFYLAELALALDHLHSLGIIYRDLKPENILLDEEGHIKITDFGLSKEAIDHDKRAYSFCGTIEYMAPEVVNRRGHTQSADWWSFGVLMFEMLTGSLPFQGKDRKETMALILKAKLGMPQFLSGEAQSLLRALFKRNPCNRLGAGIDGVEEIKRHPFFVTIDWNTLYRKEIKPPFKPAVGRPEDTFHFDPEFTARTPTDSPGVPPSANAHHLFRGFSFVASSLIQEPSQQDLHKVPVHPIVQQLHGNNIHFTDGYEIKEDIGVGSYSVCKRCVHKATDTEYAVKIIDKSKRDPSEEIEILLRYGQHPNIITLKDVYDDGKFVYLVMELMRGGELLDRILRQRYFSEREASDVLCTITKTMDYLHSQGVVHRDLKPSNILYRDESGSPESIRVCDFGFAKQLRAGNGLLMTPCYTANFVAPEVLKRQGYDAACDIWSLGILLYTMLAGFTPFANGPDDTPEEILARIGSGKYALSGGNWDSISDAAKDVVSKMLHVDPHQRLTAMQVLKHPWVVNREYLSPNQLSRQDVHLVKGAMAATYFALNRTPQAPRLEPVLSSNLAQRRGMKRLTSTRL
UniProt Q12866, sequence (whole entry, looked up): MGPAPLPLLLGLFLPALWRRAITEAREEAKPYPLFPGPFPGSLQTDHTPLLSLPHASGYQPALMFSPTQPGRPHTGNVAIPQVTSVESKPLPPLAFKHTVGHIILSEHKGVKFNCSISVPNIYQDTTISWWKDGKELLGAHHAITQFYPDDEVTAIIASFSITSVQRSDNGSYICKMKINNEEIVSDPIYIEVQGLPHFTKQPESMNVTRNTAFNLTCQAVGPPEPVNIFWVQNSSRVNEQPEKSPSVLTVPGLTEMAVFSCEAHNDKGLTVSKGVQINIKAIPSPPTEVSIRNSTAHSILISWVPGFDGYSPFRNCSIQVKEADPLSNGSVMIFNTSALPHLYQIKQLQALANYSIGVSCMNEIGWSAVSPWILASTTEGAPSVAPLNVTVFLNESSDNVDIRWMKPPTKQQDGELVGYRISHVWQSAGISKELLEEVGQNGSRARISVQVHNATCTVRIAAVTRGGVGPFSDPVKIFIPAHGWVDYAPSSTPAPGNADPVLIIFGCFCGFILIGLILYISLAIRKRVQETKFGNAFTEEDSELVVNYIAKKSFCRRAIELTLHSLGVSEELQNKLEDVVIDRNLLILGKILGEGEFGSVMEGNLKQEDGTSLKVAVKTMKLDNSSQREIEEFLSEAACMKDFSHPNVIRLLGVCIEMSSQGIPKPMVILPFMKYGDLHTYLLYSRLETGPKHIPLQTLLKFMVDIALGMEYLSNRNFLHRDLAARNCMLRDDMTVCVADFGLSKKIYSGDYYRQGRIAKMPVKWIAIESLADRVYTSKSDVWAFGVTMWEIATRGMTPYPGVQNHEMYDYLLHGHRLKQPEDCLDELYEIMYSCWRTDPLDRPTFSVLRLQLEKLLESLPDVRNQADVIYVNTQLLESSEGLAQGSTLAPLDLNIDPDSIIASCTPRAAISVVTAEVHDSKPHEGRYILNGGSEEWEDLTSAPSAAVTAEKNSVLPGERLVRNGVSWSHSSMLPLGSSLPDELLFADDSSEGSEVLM
UniProt P42685, sequence (whole entry, looked up): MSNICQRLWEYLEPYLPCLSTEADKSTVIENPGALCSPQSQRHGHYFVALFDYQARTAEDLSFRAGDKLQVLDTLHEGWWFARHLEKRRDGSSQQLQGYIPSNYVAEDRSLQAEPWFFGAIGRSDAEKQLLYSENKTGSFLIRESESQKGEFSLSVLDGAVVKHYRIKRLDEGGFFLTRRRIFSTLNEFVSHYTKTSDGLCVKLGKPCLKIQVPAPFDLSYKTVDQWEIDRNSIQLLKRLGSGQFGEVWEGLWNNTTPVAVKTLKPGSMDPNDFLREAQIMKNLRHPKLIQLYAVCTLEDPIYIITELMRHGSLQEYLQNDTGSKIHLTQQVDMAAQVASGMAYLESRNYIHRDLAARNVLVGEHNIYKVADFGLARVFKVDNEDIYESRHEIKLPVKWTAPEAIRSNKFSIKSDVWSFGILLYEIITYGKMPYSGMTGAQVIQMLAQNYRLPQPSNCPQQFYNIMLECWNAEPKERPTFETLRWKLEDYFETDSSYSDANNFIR
UniProt P49137, sequence (whole entry, looked up): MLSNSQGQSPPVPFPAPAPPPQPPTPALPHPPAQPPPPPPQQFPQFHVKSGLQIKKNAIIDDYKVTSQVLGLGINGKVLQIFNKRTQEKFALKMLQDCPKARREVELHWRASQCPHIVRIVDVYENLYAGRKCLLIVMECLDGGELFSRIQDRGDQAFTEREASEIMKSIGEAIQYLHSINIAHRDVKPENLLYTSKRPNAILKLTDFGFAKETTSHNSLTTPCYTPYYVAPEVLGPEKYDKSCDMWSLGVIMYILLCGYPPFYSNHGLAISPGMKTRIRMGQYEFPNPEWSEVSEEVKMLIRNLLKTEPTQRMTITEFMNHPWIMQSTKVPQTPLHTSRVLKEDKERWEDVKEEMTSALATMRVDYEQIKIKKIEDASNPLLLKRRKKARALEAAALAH

Sample 1 — SMILES: C=CCc1ccc(O)c(-c2cc(CC=C)ccc2O)c1; tested at: 30 µM
ANO1 del476-501/K629A: Anoctamin-1 (ANO1, Homo sapiens, UniProt Q5XXA6, del476-501/K629A)
UniProt Q5XXA6, sequence (whole entry, unmodified, looked up): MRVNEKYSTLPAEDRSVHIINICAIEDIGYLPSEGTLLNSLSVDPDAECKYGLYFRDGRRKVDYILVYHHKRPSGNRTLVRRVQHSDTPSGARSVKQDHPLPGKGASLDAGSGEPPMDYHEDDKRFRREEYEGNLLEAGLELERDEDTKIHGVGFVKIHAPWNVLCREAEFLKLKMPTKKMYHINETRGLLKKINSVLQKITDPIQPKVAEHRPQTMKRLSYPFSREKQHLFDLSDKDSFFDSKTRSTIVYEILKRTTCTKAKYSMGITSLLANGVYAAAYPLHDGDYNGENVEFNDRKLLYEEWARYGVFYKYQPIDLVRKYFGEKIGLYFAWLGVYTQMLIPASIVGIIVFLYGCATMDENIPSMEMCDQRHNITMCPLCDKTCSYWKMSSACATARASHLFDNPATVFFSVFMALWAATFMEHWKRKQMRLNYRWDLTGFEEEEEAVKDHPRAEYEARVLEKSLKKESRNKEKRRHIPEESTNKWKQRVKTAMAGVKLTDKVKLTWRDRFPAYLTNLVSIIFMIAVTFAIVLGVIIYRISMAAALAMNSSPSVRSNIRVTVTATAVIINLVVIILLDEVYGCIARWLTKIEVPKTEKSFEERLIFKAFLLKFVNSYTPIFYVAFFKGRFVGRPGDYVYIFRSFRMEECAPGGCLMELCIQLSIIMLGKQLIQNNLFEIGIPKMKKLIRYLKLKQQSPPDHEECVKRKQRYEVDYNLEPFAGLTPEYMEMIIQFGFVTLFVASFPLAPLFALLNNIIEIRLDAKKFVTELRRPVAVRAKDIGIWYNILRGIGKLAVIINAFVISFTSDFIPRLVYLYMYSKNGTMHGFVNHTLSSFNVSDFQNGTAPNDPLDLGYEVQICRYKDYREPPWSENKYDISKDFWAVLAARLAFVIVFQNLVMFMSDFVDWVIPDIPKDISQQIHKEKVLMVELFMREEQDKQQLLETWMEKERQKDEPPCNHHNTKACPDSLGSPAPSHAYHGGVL
ANO1 del476-501/E649A: Anoctamin-1 (ANO1, Homo sapiens, UniProt Q5XXA6, del476-501/E649A)
ANO1 del476-501/E659A/K629A: Anoctamin-1 (ANO1, Homo sapiens, UniProt Q5XXA6, del476-501/E659A/K629A)
target	test	setting	normalized current
ANO1 del476-501/K629A	chloride current, inhibitor, inside-out patch clamp	K603A mutant at -100 mV	-0.601
ANO1 del476-501/E649A	chloride current, inhibitor, whole-cell voltage clamp	E623A mutant	0.9
ANO1 del476-501/K629A	chloride current, inside-out patch clamp	membrane voltage 40 mV	0.245
ANO1 del476-501/K629A	chloride current, inside-out patch clamp	membrane voltage 20 mV	0.118
Anoctamin-1 (ANO1, Homo sapiens, UniProt Q5XXA6, del476-501/R541A)	chloride current, inside-out patch clamp	membrane voltage 20 mV	0.114
Anoctamin-1 (ANO1, Homo sapiens, UniProt Q5XXA6, del476-501/E649A/R541A)	chloride current, inhibitor, inside-out patch clamp	R515A/E623A mutant at -100 mV	-0.44
ANO1 del476-501/E649A	ion current, inside-out patch clamp	E623A mutant at 40 mV	0.266
ANO1 del476-501/E659A/K629A	chloride current, inside-out patch clamp	membrane voltage 80 mV	0.629
ANO1 del476-501/K629A	chloride current, inside-out patch clamp	membrane voltage 60 mV	0.395
ANO1 del476-501/E659A/K629A	chloride current, inside-out patch clamp	membrane voltage 60 mV	0.411

Sample 2 — Structure (SMILES): CCOc1nc(NC(=O)Cc2cc(OC)ccc2OC)cc(N)c1C#N; effect on: enzyme activity; mode: inhibitor; tested at: 0.5 µM; relative to: control
target	remaining activity [%]
Tyrosine-protein kinase Mer (MERTK, Homo sapiens, UniProt Q12866)	83.9
Mitogen-activated protein kinase kinase kinase 5 (MAP3K5, Homo sapiens, UniProt Q99683)	92.8
Macrophage-stimulating protein receptor (MST1R, Homo sapiens, UniProt Q04912)	95
Glycogen synthase kinase-3 beta (GSK3B, Homo sapiens, UniProt P49841)	101
Serine/threonine-protein kinase Nek6 (NEK6, Homo sapiens, UniProt Q9HC98)	98.1
Serine/threonine-protein kinase TAO2 (TAOK2, Homo sapiens, UniProt Q9UL54)	99.4
MAP kinase-activated protein kinase 2 (MAPKAPK2, Homo sapiens, UniProt P49137)	103
Ribosomal protein S6 kinase alpha-2 (RPS6KA2, Homo sapiens, UniProt Q15349)	98.8
Fibroblast growth factor receptor 1 (FGFR1, Homo sapiens, UniProt P11362)	106
Tyrosine-protein kinase FRK (FRK, Homo sapiens, UniProt P42685)	103
Activin receptor type-1B (ACVR1B, Homo sapiens, UniProt P36896)	98.5
Tyrosine-protein kinase JAK3 (JAK3, Homo sapiens, UniProt P52333)	99.1
Tyrosine-protein kinase Lck (LCK, Homo sapiens, UniProt P06239)	102

Sample 3 — technique: Incucyte 3D growth; tested at: 30 µM; reading: higher = more growth
Compound: CC(C)(C(=O)O)[C@H](NC(=O)Cc1cccc(I)c1)c1ccc2oc(=O)[nH]c2c1
cell line	setting	spheroid area
A375	18.52 h	1.33e+07 a.u. and 1.11e+07 a.u. and 1.05e+07 a.u. and 1.29e+07 a.u.
NCI-H358	210 h	7.91e+06 a.u. and 9.99e+06 a.u. and 7.52e+06 a.u. and 6.15e+06 a.u. and 1.01e+07 a.u. and 9.47e+06 a.u.
MEL-JUSO	318.52 h	3.22e+07 a.u. and 2.9e+07 a.u. and 4.43e+07 a.u. and 2.53e+07 a.u. and 3e+07 a.u. and 2.66e+07 a.u.
NCI-H358	18 h	3.16e+06 a.u. and 3.14e+06 a.u. and 3.54e+06 a.u. and 3.39e+06 a.u. and 3.46e+06 a.u. and 2.75e+06 a.u.
NCI-H358	0 h	3.25e+06 a.u. and 3.32e+06 a.u. and 3.44e+06 a.u. and 3.59e+06 a.u. and 3.31e+06 a.u. and 3.48e+06 a.u.
MEL-JUSO	264.52 h	2.23e+07 a.u. and 2.09e+07 a.u. and 1.72e+07 a.u. and 2.39e+07 a.u. and 3.49e+07 a.u. and 1.91e+07 a.u.
MEL-JUSO	192.52 h	1.79e+07 a.u. and 1.57e+07 a.u. and 1.77e+07 a.u. and 1.99e+07 a.u. and 1.33e+07 a.u. and 1.58e+07 a.u.
PC-9	246 h	1.9e+09 a.u. and 1.83e+09 a.u. and 1.88e+09 a.u. and 1.92e+09 a.u. and 1.87e+09 a.u. and 1.86e+09 a.u.

Further values, each from its own experiment
Compound	cell line	test	setting	quantity	result
C[C@@H]1C[C@H]2[C@@H]3CCC4=CC(=O)C=C[C@]4(C)[C@@]3(F)[C@@H](O)C[C@]2(C)[C@@]1(O)C(=O)CO	A-375	–	100 µM, 60 h	viability	93.2%
CC(=O)Nc1c(F)cc(C(=O)N[C@H]2CC[C@H](O)CC2)cc1O[C@@H](C)c1ccccc1	HEK293T	high-content imaging	concentration not given, 24 h, recommended concentration	healthy nuclei	42%

A few entries again (sample 3):
cell line	setting	spheroid area
MEL-JUSO	318.52 h	3.22e+07 a.u. and 2.9e+07 a.u. and 4.43e+07 a.u. and 2.53e+07 a.u. and 3e+07 a.u. and 2.66e+07 a.u.
NCI-H358	18 h	3.16e+06 a.u. and 3.14e+06 a.u. and 3.54e+06 a.u. and 3.39e+06 a.u. and 3.46e+06 a.u. and 2.75e+06 a.u.
NCI-H358	0 h	3.25e+06 a.u. and 3.32e+06 a.u. and 3.44e+06 a.u. and 3.59e+06 a.u. and 3.31e+06 a.u. and 3.48e+06 a.u.
MEL-JUSO	264.52 h	2.23e+07 a.u. and 2.09e+07 a.u. and 1.72e+07 a.u. and 2.39e+07 a.u. and 3.49e+07 a.u. and 1.91e+07 a.u.
